Measured values of several laboratories.
Every numbered part comes from another study and shows a few of its results, in no order.

Set 1
Target: Histone acetyltransferase KAT6A, both winged helices, GST fusion (KAT6A, Homo sapiens, UniProt Q92794, residues 1-181)
Method: protein binding microarray
Form: double-stranded DNA, one strand shown
Medium: in vitro
Tested at: not given
Setting: 8-mer, flanks averaged, mean of 2 arrays, mostly near background
Reference: not given
Reading: higher = stronger binding
Construct (chain): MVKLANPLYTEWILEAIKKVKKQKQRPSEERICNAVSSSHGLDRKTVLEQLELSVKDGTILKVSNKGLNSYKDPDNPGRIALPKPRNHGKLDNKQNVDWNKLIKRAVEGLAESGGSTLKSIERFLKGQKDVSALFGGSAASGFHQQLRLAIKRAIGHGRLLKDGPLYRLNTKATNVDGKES
With `GGCCCAGA` the E-score was -0.112.
The E-score of `CGTTCGCA` is reported as 0.144.
With `GTCTTGCA` the E-score was 0.00582.
`CACGACAG` gave an E-score of -0.0251.

Set 2
Target: RNA binding protein fox-1 homolog 2, RRM domain, GST-SBP tag (RBFOX2, Homo sapiens, UniProt O43251-10, residues 100-194)
Method: RNA Bind-n-Seq
Form: RNA
Medium: in vitro
Tested at: 365 nM
Setting: natural RNA segment, single round, ends assumed
Reference: no-protein control
Reading: higher = stronger binding
Residues (chain): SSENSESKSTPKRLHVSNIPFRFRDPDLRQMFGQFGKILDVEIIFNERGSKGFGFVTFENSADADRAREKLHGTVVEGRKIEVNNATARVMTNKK
Under “RBNS enrichment (R)”, `GGGAGUUCUACAGUCCGACGAUCUGGGGGGCCCCUUUGGGAGCAGGCCUGUGUAUCAGGUGACUUCUGUUGACCACUCUCUGAAUAGGCUUCUGUCUGGUACUAACUGGCCAUUACCAGAGAUGUCCUGUGACUGGAAUUCUCGGGUGCCAA` is recorded as 0.24.
`GGGAGUUCUACAGUCCGACGAUCCAGCUUUGUGGAGGGAGCCGCCGUGCUUCUGUCACCUGCUCCCUUUCUUGCGUCUCCCUGUGAUGGGCCCUUAGGCCUGGCUGGGCCCAUUACAUAUCCCUGUGGUGGCUUGGAAUUCUCGGGUGCCAA` — result for “RBNS enrichment (R)”: 0.333.
`GGGAGUUCUACAGUCCGACGAUCAUUGUGACCAGUCACGUUCUAUCACCAGGCACUGUCUUGUCUUUGCCCUUGCCUUUUCUGUAACUCACCAUUUAUUGUAUUUACAAAUCUAGUAAGGGUUUUGAUCACACUGGAAUUCUCGGGUGCCAA`: “RBNS enrichment (R)” 0.237.
`GGGAGUUCUACAGUCCGACGAUCUUGUACACUAAGAUUUCAUGCAGACACCAUUGCUGUGGAGCCGAUUGAAAUUUAACCCUGCUCCAUAUUCUAACCUGUUAUGCAGGUACACUGUUAUCUUGCCCUGUGUCUGGAAUUCUCGGGUGCCAA`: “RBNS enrichment (R)” 0.408.

Set 3
Target: RING finger protein unkempt homolog, zinc fingers 1-6, GST-SBP tag (UNK, Homo sapiens, UniProt Q9C0B0, residues 30-357)
UniProt Q9C0B0, sequence (30-357, looked up): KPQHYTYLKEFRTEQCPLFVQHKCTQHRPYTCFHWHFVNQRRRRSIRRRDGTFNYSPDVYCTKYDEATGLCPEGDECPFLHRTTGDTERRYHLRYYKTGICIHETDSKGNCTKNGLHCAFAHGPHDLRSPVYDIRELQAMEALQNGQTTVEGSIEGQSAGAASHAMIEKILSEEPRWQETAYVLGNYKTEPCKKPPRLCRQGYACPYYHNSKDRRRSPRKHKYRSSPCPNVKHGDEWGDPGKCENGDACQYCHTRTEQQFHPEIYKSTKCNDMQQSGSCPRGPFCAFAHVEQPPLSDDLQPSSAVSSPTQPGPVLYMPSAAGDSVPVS
Method: RNA Bind-n-Seq
Form: RNA
Medium: in vitro
Tested at: not given
Setting: RNA with constant flanks, ends assumed
Reference: input RNA pool
Reading: higher = stronger binding
The bound/input enrichment of `GGGAGUUCUACAGUCCGACGAUCGAAAAACCAUCUCCUAUCCAGGAGGAGAGCAUUCCCAUUGCUUUAUCUGGUAGGGAUAUCUCCGCCCGAGCAAAAAAUGGAACAGGCAAAAGCGGUGCCUACCUCAUCCCCUUACUUGAACAACAGAGGAUUGAGCAUCA` is reported as 0.152 ratio.
With `GGGAGUUCUACAGUCCGACGAUCGUACUAAAAAAGAGAGUAACUCGGGAGUGUUGAGGCUUUGCGUGAAUGUCUGAGACCGGGCCUGGCUCCACCCCAGGAAGGGAGGCCAACGUCACUAACACUGUAUGUGCAAAUGUCCGCCAACAGAGGAUUGAGCAUCA` the bound/input enrichment was 0.146 ratio.
`GGGAGUUCUACAGUCCGACGAUCGCUAUGAAAAGGGGAGAGCCUGCCAUCUACAGGCCACUAGAUCCAAAGCCAUUCCCAAAUUACCGAGCUAACUACAACUUCCGGGGCAUGUACAAUCAGAGGUAUCAUUGCCCAAUGCCCCAACAGAGGAUUGAGCAUCA` has a bound/input enrichment of 0.225 ratio.

Further values, each from its own experiment
The fold induction of `PhoQ, residues 284 288 289 292 302 303 ALSMDL` is reported as 4.54 (PhoP, residues 12 14 15 18 19 AGCRL (Escherichia coli, UniProt P23836); Sort-seq, item: YFP reporter; E. coli; PhoQ-PhoP variant library, together with: 10 µM Mg2+; reference: high Mg2+ state, higher = stronger signaling).

Excerpt of the above (set 3):
The bound/input enrichment of `GGGAGUUCUACAGUCCGACGAUCGAAAAACCAUCUCCUAUCCAGGAGGAGAGCAUUCCCAUUGCUUUAUCUGGUAGGGAUAUCUCCGCCCGAGCAAAAAAUGGAACAGGCAAAAGCGGUGCCUACCUCAUCCCCUUACUUGAACAACAGAGGAUUGAGCAUCA` is reported as 0.152 ratio.
With `GGGAGUUCUACAGUCCGACGAUCGUACUAAAAAAGAGAGUAACUCGGGAGUGUUGAGGCUUUGCGUGAAUGUCUGAGACCGGGCCUGGCUCCACCCCAGGAAGGGAGGCCAACGUCACUAACACUGUAUGUGCAAAUGUCCGCCAACAGAGGAUUGAGCAUCA` the bound/input enrichment was 0.146 ratio.
